Published values from different studies.
Compare with care: the assays were run in different laboratories. ± marks the error that the study gave.
POL4: DNA polymerase IV (POL4, Saccharomyces cerevisiae, UniProt P25615)
Chain of UniProt P25615 (whole entry, looked up): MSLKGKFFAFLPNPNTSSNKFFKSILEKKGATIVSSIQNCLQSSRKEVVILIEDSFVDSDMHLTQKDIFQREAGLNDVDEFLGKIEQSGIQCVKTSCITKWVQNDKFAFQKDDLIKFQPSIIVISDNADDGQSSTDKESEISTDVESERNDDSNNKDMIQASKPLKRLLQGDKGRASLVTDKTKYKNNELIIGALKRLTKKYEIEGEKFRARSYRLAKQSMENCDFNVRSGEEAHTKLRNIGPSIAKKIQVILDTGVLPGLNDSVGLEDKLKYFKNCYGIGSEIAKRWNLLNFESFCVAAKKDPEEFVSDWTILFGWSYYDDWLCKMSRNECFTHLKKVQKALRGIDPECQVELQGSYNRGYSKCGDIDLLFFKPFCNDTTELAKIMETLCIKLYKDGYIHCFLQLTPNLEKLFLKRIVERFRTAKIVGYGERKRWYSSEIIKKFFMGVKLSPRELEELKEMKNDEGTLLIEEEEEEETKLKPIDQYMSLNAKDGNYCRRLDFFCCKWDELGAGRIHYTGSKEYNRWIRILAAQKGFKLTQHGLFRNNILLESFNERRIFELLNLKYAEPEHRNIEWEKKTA
CNR1: Cannabinoid receptor 1 (CNR1, Homo sapiens, UniProt P21554)
Chain of UniProt P21554 (whole entry, looked up): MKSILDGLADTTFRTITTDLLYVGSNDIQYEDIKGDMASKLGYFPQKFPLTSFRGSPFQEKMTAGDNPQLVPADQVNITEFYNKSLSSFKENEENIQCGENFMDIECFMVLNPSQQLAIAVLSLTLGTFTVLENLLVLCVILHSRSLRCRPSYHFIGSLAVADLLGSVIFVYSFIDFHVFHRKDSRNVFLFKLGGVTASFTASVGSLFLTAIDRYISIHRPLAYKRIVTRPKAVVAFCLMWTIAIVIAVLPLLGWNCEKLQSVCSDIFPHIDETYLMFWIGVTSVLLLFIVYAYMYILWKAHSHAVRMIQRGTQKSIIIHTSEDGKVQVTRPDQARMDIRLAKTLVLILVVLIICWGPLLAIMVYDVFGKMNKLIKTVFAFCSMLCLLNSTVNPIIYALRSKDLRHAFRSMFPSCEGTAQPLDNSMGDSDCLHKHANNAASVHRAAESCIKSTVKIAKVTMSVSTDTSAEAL
DRD4: D(4) dopamine receptor (DRD4, Homo sapiens, UniProt P21917)
Chain of UniProt P21917 (whole entry, looked up): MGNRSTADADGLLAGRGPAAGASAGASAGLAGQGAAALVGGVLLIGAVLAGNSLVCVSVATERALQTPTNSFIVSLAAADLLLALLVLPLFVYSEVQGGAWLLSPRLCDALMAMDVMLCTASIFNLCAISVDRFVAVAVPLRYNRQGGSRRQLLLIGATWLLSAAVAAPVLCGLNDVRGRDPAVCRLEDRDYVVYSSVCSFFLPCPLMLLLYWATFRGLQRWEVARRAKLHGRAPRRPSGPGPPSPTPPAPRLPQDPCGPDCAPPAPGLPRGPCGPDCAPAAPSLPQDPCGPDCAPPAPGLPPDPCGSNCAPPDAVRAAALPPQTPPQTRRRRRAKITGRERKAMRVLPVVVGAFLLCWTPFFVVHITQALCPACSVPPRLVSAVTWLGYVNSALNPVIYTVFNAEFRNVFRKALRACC
ADRA1A: Alpha-1A adrenergic receptor (ADRA1A, Homo sapiens, UniProt P35348)
Chain of UniProt P35348 (whole entry, looked up): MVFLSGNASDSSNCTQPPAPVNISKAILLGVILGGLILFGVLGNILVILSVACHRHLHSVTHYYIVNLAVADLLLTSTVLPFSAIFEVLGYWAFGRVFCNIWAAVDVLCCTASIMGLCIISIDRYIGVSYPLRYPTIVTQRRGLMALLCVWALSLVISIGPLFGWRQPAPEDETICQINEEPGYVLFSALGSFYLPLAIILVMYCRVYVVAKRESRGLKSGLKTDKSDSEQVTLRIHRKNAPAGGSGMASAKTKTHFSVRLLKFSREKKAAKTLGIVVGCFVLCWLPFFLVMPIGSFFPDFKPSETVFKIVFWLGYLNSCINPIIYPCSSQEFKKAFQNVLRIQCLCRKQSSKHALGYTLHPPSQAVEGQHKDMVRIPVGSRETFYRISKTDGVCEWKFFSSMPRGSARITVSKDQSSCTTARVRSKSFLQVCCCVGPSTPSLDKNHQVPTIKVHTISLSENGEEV
HDAC8: Histone deacetylase 8 (HDAC8, Homo sapiens, UniProt Q9BY41)
Chain of UniProt Q9BY41 (whole entry, looked up): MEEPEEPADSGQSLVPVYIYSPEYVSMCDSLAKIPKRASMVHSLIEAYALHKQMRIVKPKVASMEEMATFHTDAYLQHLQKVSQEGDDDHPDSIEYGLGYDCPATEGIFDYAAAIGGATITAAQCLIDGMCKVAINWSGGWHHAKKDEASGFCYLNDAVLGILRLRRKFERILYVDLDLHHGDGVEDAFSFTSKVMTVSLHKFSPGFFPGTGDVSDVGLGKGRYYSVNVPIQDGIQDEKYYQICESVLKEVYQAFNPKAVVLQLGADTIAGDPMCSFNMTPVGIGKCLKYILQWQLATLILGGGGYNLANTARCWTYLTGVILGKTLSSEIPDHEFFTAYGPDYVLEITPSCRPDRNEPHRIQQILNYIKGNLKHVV
Chain of UniProt Q99808 (whole entry, looked up): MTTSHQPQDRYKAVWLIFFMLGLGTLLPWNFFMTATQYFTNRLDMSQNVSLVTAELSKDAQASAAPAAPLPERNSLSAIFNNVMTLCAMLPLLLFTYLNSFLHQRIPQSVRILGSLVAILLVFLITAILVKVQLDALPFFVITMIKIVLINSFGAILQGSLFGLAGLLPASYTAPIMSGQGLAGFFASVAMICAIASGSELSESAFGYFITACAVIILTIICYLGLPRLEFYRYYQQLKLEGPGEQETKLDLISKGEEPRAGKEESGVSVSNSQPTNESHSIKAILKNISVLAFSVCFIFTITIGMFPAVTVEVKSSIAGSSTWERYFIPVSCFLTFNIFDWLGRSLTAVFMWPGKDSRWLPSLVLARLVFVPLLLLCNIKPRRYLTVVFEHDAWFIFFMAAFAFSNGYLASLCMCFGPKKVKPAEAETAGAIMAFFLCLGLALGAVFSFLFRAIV
Chain of UniProt P10636 (whole entry, looked up): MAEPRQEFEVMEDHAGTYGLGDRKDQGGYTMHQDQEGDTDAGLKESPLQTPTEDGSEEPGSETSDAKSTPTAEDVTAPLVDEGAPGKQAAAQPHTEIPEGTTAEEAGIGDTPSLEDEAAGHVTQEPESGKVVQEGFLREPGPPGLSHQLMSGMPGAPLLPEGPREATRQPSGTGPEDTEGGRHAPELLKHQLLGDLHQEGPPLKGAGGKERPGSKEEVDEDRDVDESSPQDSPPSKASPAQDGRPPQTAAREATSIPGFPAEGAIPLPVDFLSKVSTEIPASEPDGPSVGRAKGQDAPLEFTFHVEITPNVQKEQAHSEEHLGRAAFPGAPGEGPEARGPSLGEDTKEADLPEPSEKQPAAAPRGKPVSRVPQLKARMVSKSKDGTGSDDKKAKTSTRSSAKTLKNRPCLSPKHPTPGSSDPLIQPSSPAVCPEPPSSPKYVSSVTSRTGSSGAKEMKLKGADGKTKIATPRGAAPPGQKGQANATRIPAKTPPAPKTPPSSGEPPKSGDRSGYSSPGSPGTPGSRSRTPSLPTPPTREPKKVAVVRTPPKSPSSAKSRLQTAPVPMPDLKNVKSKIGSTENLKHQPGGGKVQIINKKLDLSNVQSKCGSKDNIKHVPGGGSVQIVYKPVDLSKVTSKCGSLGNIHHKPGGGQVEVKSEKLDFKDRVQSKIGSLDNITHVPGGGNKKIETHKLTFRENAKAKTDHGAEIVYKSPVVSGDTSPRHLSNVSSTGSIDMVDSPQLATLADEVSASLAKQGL
Chain of UniProt Q16739 (whole entry, looked up): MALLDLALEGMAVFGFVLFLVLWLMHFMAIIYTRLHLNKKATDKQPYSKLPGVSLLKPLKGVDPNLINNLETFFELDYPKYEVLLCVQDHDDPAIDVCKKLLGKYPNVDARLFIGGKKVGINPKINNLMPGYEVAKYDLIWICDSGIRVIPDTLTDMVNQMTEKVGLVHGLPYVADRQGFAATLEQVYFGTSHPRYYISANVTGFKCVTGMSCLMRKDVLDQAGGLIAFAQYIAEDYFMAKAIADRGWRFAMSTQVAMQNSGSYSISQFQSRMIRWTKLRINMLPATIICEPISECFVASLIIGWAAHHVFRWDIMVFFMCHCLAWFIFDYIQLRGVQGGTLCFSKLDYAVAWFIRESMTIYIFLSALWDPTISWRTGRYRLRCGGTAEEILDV
Chain of UniProt Q07440 (whole entry, unmodified, looked up): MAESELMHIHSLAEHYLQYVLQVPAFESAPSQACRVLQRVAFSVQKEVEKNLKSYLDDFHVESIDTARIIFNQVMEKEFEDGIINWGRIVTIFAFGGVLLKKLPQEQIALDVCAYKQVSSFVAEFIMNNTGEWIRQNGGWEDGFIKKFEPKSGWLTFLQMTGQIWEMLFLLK

SMILES	target	test	system	setting	how to read	Ki [nM]
O=P(O)(O)OP(=O)(O)OP(=O)(O)OCCCCO	POL4	DNA polymerase activity, inhibitor, [3H]dTTP incorporation		added: poly(dA)/oligo(dT)		29000
CCOC(=O)C(CC)(CCCOC)NC(=O)c1ccc(C2CC2)c(Cc2ccc(F)cc2)n1 (centres unmarked)	CNR1	ligand displacement, radioligand		cell membranes		5.6
CC(C)c1ccc(N(C)c2ccc3c(c2)OCC[C@H]3CNc2cnccc2C(=O)O)cc1	KDM4C (Homo sapiens, UniProt Q9H3R0)	enzyme activity, inhibitor, TR-FRET				520
CCOC(=O)C(CC)(CCCSCCCCCCN)NC(=O)c1ccc(C2CC2)c(Cc2ccc(F)cc2)n1 (centres unmarked)	CNR1	ligand displacement, radioligand		cell membranes		204
Fc1ccc(-c2ccc3c(n2)[nH]c2ccncc23)cn1	Microtubule-associated protein tau, PSP brain aggregates (MAPT, Homo sapiens, UniProt P10636)	binding	PSP human brain tissue	added: [3H]PI-2620		28.3
Fc1cccc(OCC2CN(Cc3cn4ccccc4n3)CCC2(F)F)c1 (centres unmarked)	DRD4	ligand displacement, radioligand		cell membranes		85
CNC[C@H](O)c1cccc(OCCOCCOCC#Cc2cccc(Cn3c(-c4ccccc4)c(-c4ccccc4)c4c(=N)n([C@H]5CC[C@H](O)CC5)cnc43)c2)c1	ADRA1A	ligand displacement, radioligand		cell membranes		423
Fc1cccc(OCC2CN(Cc3ncn4ccccc34)CCC2(F)F)n1 (centres unmarked)	DRD4	ligand displacement, radioligand		cell membranes		705
O=S(=O)(O)c1ccc(N=Nc2ccc(O)cc2O)cc1	Bcl-2-related protein A1 (Mus musculus, UniProt Q07440, C113S/P104K)	ligand displacement, FP				4040
O=C(NO)c1cc(F)cc(OS(=O)(=O)Oc2ccc3ccccc3c2)c1	HDAC8	enzyme activity, inhibitor, fluorescence				828
COc1ccc(CN2CCC(F)(F)C(COc3ncc(C)s3)C2)cc1F (centres unmarked)	DRD4	ligand displacement, radioligand		cell membranes		210
O=C(NO)c1cncc(OS(=O)(=O)Oc2ccccc2-c2ccccc2)c1	HDAC8	enzyme activity, inhibitor, fluorescence				1120
COc1ccc(CN2CCC(F)(F)C(COc3ccc(C)c(F)c3)C2)cc1F (centres unmarked)	DRD4	ligand displacement, radioligand		cell membranes		72
O=C(NO)c1cccc(OS(=O)(=O)Oc2cccc([N+](=O)[O-])c2)c1	HDAC8	enzyme activity, inhibitor, fluorescence				22
CCOC(=O)[C@H](Cc1ccc(OC)cc1)NC(=O)c1ccc(C2CC2)c(Cc2ccc(F)cc2)n1	CNR1	ligand displacement, radioligand		cell membranes		600
Cn1cnc2cc(CN3CCC(F)(F)C(COc4cccc(F)c4)C3)ccc21 (centres unmarked)	DRD4	ligand displacement, radioligand		cell membranes		11.8
CN1CCC[C@@H]1C(=O)N[C@@H](Cc1ccc(-c2ccccc2)cc1)B(O)O	20S proteasome (Plasmodium falciparum, UniProt A0A5K1K7U1+Q8IJT1)	inhibitor, progress curve				2.8
OCC1OC(n2cnc3c(NCc4ccc(Br)s4)ncnc32)C(O)C1O (centres unmarked)	SLC29A1 (Homo sapiens, UniProt Q99808)	ligand displacement, radioligand				52
N#Cc1ccc(OCC2CN(Cc3ncn4ccccc34)CCC2(F)F)cc1 (centres unmarked)	DRD4	ligand displacement, radioligand		cell membranes		1.7
CCc1c(Cl)cccc1N1CCN(C[C@@H](F)CCNC(=O)c2cc3ccccc3[nH]2)CC1	DRD4	ligand displacement, radioligand		cell membranes		> 10000
CCOC(=O)C(CC)(CCCSCCOCCNc1ccc([N+](=O)[O-])c2nonc12)NC(=O)c1ccc(C2CC2)c(Cc2ccc(F)cc2)n1 (centres unmarked)	CNR1	ligand displacement, radioligand		cell membranes		418
Cn1ncc2cc(CN3CCC(F)(F)C(COc4ccc(C#N)c(F)c4)C3)ccc21 (centres unmarked)	DRD4	ligand displacement, radioligand		cell membranes		3.8
CCOC(=O)C(CC)(CCCSCCOCCN)NC(=O)c1ccc(C2CC2)c(Cc2ccc(F)cc2)n1 (centres unmarked)	CNR1	ligand displacement, radioligand		cell membranes		200
COc1ccc(CN2CCC(F)(F)C(COc3nc(C)cs3)C2)cc1F (centres unmarked)	DRD4	ligand displacement, radioligand		cell membranes		855
Cn1ccc2c(N3CCN(CCCCOc4ccc5c(c4)NC(=O)CC5)CC3)cccc21	ADRA1A	ligand displacement, radioligand				> 10000
CC1Cc2ccccc2N1C(=O)CN1CCN(Cc2ccccc2)CC1 (centres unmarked)	ADRA1A	ligand displacement, radioligand				7700
CCOC(=O)[C@@](CC)(CCCSCCOCCOCCN)NC(=O)c1ccc(C2CC2)c(Cc2ccc(F)cc2)n1	CNR1	ligand displacement, radioligand		cell membranes		180
O=C(NCCCCOP(=O)(O)OP(=O)(O)OP(=O)(O)O)OCC1c2ccccc2-c2ccccc21	POL4	DNA polymerase activity, inhibitor, [3H]dTTP incorporation		added: poly(dA)/oligo(dT)		350
CC(C)(O)c1ccc(N2Cc3c(ccnc3-c3ccc(F)cc3OCC(F)(F)F)C2=O)cc1	UGCG (Homo sapiens, UniProt Q16739)	enzyme activity, noncompetitive inhibitor, steady-state kinetics			baseline: versus ceramide	5.2 ± 1.4

A few entries again:
SMILES	target	test	system	setting	how to read	Ki [nM]
CCOC(=O)C(CC)(CCCOC)NC(=O)c1ccc(C2CC2)c(Cc2ccc(F)cc2)n1 (centres unmarked)	CNR1	ligand displacement, radioligand		cell membranes		5.6
CC(C)c1ccc(N(C)c2ccc3c(c2)OCC[C@H]3CNc2cnccc2C(=O)O)cc1	KDM4C (Homo sapiens, UniProt Q9H3R0)	enzyme activity, inhibitor, TR-FRET				520
CCOC(=O)C(CC)(CCCSCCCCCCN)NC(=O)c1ccc(C2CC2)c(Cc2ccc(F)cc2)n1 (centres unmarked)	CNR1	ligand displacement, radioligand		cell membranes		204
